Measured values of several laboratories.
Lines come from different studies, so protocols differ.

| SMILES | tested on | test | test system | setting | measurement | result |
| --- | --- | --- | --- | --- | --- | --- |
| COc1ncccc1CN(C(=O)OCc1ccc([N+](=O)[O-])s1)[C@H]1C[C@@H]1c1ccccc1 (racemic) | THP-1 wild type cells | MTS |  | 72 h | GI50 | > 50000 nM |
| COc1ccccc1-c1c[nH]c2ncc(-c3cncc(C(=O)N(C)C)c3)cc12 | BaF3 | cell growth or viability |  |  | GI50 | > 1000 nM |
| COc1ncccc1CN(C(=O)OCc1ccc([N+](=O)[O-])cc1)[C@H]1C[C@@H]1c1ccccc1 (racemic) | THP-1 wild type cells | MTS |  | 72 h | GI50 | > 50000 nM |
| [Cl-].[Cl-].[Ru+2].c1ccc(-c2ccccn2)nc1.c1ccc(-c2ccccn2)nc1.c1ccc2cc3nc4c5cccnc5c5ncccc5c4nc3cc2c1 | SK-MEL-28 | cell growth, SRB |  | cool white visible light, 1% O2 hypoxia | GI50 | 201 nM |
| Cc1cccc(NC(=O)CC(=O)Nc2ccc3[nH]nc(/C=C/c4ccccn4)c3c2)c1 | BaF3 | cell growth or viability, CCK-8 |  |  | GI50 | > 10000 nM |
| CN(C)c1cccc(-c2ccc([C@H]3[C@@H](F)[C@@H](F)C[C@@H](F)[C@H]3F)cc2)c1 |  | liver microsome stability | dog liver microsomes | 1 µM | hepatic clearance | 28 mL/min/kg |
| COc1ccccc1C(=O)NCC(=O)Nc1ccc2[nH]nc(/C=C/c3ccccn3)c2c1 | BaF3 | cell growth or viability, CCK-8 |  |  | GI50 | > 10000 nM |
| CN(C)C(=O)CNC(=O)c1ccc([C@H]2[C@@H](F)[C@@H](F)C[C@@H](F)[C@H]2F)cc1 |  | liver microsome stability | rat liver microsomes | 1 µM | hepatic clearance | 6.1 mL/min/kg |
| CCN(C(=O)c1cc(F)ccc1Oc1nncnc1N1CCC2(C1)CN([C@H](CCCN(C)CCOC)C(C)C)C2)C(C)C | EJ-28 | cell growth or viability |  | 7 days | GI50 | > 10000 nM |
| O=C(Nc1ccc(Sc2ccc3c(/C=C/c4ccccn4)n[nH]c3c2)cc1)Nc1ccc(F)c(F)c1 | BaF3 | cell growth or viability, CCK-8 |  |  | GI50 | 2480 nM |
| C=CS(=O)(=O)Oc1ccc(OC)c(-c2c[nH]c3ncc(-c4cncc(C(=O)N(C)C)c4)cc23)c1 | BaF3 | cell growth or viability |  |  | GI50 | > 1000 nM |

Repeated from above:
| SMILES | tested on | test | test system | setting | measurement | result |
| --- | --- | --- | --- | --- | --- | --- |
| CCN(C(=O)c1cc(F)ccc1Oc1nncnc1N1CCC2(C1)CN([C@H](CCCN(C)CCOC)C(C)C)C2)C(C)C | EJ-28 | cell growth or viability |  | 7 days | GI50 | > 10000 nM |
